Results collected from several papers.
Numbered parts are unrelated; each lists some results of a single study. Numbers after ± are the reported error.
Chain of UniProt Q8JUX6 (whole entry, looked up): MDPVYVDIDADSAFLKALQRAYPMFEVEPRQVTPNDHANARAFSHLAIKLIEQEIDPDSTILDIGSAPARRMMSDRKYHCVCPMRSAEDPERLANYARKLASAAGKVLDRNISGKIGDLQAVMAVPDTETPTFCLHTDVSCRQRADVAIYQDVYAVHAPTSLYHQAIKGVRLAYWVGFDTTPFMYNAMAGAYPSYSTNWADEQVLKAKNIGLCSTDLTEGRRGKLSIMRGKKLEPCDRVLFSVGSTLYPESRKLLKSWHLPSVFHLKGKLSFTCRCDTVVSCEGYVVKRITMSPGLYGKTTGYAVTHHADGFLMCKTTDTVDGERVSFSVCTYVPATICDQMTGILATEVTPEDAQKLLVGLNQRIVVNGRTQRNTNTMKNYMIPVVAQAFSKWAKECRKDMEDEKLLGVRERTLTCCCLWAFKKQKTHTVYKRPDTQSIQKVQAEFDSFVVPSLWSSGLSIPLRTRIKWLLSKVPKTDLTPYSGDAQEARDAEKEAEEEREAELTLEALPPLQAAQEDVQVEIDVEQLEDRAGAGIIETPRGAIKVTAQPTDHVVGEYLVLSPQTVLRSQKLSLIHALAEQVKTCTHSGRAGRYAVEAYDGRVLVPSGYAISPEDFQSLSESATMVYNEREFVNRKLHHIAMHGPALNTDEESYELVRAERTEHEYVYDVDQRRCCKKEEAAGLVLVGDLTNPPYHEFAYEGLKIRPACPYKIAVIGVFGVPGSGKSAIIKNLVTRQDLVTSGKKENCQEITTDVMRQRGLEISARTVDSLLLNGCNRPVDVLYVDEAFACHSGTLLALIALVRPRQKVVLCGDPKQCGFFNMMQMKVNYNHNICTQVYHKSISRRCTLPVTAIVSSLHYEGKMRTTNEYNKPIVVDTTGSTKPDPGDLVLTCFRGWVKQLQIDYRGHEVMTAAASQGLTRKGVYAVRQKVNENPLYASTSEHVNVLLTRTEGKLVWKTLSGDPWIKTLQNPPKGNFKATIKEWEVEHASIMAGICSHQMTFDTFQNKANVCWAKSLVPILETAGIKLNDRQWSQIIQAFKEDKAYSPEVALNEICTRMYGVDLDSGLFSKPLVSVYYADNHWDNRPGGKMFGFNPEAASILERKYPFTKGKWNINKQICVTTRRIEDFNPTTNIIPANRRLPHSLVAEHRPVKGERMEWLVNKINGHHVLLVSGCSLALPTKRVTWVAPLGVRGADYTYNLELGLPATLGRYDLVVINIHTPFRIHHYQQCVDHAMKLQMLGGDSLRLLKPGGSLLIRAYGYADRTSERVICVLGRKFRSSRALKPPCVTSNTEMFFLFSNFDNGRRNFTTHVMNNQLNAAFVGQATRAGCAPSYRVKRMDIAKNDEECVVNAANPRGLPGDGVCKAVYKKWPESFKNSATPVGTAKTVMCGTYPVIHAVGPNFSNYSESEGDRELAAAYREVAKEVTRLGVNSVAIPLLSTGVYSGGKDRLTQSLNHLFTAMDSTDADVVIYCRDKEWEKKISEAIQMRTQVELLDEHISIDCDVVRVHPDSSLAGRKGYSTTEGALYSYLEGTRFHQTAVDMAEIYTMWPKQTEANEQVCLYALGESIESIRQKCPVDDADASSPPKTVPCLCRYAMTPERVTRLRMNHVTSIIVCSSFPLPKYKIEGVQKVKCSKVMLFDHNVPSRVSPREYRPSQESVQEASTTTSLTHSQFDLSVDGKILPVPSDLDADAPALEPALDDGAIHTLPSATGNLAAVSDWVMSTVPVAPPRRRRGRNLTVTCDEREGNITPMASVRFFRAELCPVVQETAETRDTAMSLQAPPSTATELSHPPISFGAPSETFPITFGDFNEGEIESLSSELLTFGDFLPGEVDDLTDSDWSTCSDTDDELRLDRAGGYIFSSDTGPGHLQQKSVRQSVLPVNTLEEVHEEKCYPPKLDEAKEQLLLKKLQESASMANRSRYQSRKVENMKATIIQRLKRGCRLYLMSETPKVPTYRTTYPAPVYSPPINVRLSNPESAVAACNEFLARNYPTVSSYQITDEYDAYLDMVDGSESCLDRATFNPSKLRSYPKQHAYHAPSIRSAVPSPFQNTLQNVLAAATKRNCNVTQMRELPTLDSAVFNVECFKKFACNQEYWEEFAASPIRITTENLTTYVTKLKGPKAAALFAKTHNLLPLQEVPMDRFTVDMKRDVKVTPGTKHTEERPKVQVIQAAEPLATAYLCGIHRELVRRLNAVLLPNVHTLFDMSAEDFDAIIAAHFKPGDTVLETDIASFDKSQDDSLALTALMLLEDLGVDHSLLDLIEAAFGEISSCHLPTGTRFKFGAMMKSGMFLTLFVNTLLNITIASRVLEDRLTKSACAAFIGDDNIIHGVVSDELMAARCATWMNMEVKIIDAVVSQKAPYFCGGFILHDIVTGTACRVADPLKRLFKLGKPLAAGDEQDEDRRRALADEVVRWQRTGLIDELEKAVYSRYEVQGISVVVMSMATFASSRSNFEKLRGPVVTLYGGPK

Series 1
Cell line: mouse MPNST tumor cells
Technique: high-content immunofluorescence imaging
Item: nuclear SOX9
Tested at: 10 µM
Time: 12 h
Notes: mean of 2 replicates
Relative to: DMSO control
Reading: higher = more nuclear SOX9
SMILES	nuclear SOX9 intensity
N#CC(=Cc1ccc(O)cc1)C(=O)O	103 % of DMSO
CC(C)[C@]12O[C@H]1[C@@H]1O[C@]13[C@]1(O[C@H]1C[C@H]1C4=C(CC[C@@]13C)C(=O)OC4)[C@@H]2O	92.9 % of DMSO
COc1ccc(-n2nc(C(F)(F)F)cc2-c2ccc(Cl)cc2)cc1	105 % of DMSO

Series 2
Target: Replicase polyprotein 1ab, main protease (rep, Severe acute respiratory syndrome coronavirus 2, UniProt P0DTD1)
Read-out: enzyme activity
Action: inhibitor
Tested at: 20 µM
Notes: primary screen
SMILES	inhibition [%]
CC(C)/N=c1\cc2n(-c3ccc(Cl)cc3)c3ccccc3nc-2cc1Nc1ccc(Cl)cc1	25
CC(=O)OCC1=C(C(=O)O)N2C(=O)[C@@H](NC(=O)Cc3cccs3)[C@H]2SC1	37.7
CC(C)(C)OC(=O)NCCc1nnc(S(=O)(=O)Cc2ccc(Cl)cc2Cl)o1	61.5

Series 3
Target: Replicase polyprotein 1ab, polymerase (rep, Severe acute respiratory syndrome coronavirus 2, UniProt P0DTD1)
Read-out: enzyme activity
Action: inhibitor
Tested at: 20 µM
SMILES	inhibition
COc1ccc(S(=O)(=O)Nc2c(C)cc(C)cc2C)cc1	-2.89%
O=C(NC1CCNCC1)c1n[nH]cc1NC(=O)c1c(Cl)cccc1Cl	-5.05%
CC(C)(N)c1ncc(-c2ccc(OC(F)(F)F)cc2)[nH]1	16.1%
CC(=O)O[C@]1(C(C)=O)CC[C@H]2[C@@H]3C=C(Cl)C4=CC(=O)CC[C@]4(C)[C@H]3CC[C@@]21C	-3.06%
CCCC(=O)O[C@]1(C(=O)CCl)[C@H](C)C[C@@H]2[C@@H]3CCC4=CC(=O)C=C[C@]4(C)[C@]3(F)C(=O)C[C@@]21C	-0.47%
COC(=O)C(Cc1ccc(OCCn2c(=O)sc3cc(C(=O)c4ccccc4)ccc32)cc1)C(=O)OC	-1.95%
CNC(=O)c1cc(Oc2ccc(NC(=O)Nc3ccc(Cl)c(C(F)(F)F)c3)cc2)ccn1	2.63%
C=C1/C(=C\C=C2/CCC[C@]3(C)[C@@H]([C@H](C)CCCC(C)C)CC[C@@H]23)C[C@@H](O)C[C@@H]1O	-7.39%
CCOCC(O)COc1ccc(NC(=O)CC[S+](C)C)cc1 (centres unmarked)	-2.12%
NC[C@@](O)(c1ccc(Cl)cc1)c1ccc(-c2cn[nH]c2)cc1	0.22%
O=C1c2ccccc2C(=O)c2ccccc21	-2.04%
Nc1ncc2c(n1)CC(c1ccco1)CC2=O (centres unmarked)	-14.2%
COc1ccncc1C(=O)NC(=O)Nc1ccc(-c2ccccc2)c(C(F)(F)F)c1	0.42%
O=C(Nc1ccc(F)cc1)N1CCc2ccccc2C1c1ccc(C(F)(F)F)cc1 (centres unmarked)	-2.64%
CNC(=O)Oc1ccccc1OC(C)C	-2.11%
CNCC(O)c1ccc(O)cc1 (centres unmarked)	4.73%
CSCC[C@H](NC(=O)[C@H](CC(C)C)NC(=O)CNC(=O)[C@H](Cc1ccccc1)NC(=O)[C@H](Cc1ccccc1)NC(=O)[C@H](CCC(N)=O)NC(=O)[C@H](CCC(N)=O)NC(=O)[C@@H]1CCCN1C(=O)[C@H](CCCCN)NC(=O)[C@@H]1CCCN1C(=O)[C@@H](N)CCCN=C(N)N)C(N)=O	-1.21%
N#CC(c1ccccc1)(c1ccccc1)c1ccccc1Cl	-9.65%
C[C@]12CCC(=NOCCN)C[C@@H]1C(=O)C[C@@H]1[C@@H]2CC[C@]2(C)C(=O)CC[C@@H]12	-5.12%
Cc1noc(C)c1-c1ccc(-c2cc(C(N)=O)c(NC(N)=O)s2)c(O[C@H]2CCNC2)c1	12.8%
COc1cc(C(=O)NCc2ccc(OCCN(C)C)cc2)cc(OC)c1OC	27.7%
O=S(=O)(N[C@H](CO)C(C(F)(F)F)C(F)(F)F)c1ccc(Cl)s1	-1.9%
O=C(O)C(=O)c1cn(Cc2ccccc2)c2ccc(-c3ccc(OC(F)(F)F)cc3)cc12	-4.22%
CC(C)=CCC/C(C)=C/CC/C(C)=C/CC[C@]1(C)CCc2cc(O)cc(C)c2O1	1.88%
CC[C@H](NC(=O)c1c(C)c(-c2ccccc2)nc2ccccc12)c1ccccc1	-2.01%

Mixed results
CAMK2A: Calcium/calmodulin-dependent protein kinase type II subunit alpha (CAMK2A, Homo sapiens, UniProt Q9UQM7)
Chain of UniProt Q9UQM7 (whole entry, looked up): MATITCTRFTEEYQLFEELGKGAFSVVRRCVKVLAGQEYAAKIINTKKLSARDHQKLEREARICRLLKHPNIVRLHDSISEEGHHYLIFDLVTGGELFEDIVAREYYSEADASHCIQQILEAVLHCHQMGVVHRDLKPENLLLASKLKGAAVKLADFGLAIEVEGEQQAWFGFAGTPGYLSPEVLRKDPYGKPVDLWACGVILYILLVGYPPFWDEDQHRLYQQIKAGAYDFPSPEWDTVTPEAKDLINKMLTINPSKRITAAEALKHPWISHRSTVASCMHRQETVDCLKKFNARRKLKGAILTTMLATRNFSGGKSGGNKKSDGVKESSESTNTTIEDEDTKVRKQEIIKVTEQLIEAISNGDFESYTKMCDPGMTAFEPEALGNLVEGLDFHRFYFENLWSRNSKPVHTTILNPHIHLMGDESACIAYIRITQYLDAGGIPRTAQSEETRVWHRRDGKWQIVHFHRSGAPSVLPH
rep nsp13 helicase: Replicase polyprotein 1ab, nsp13 helicase (rep, Severe acute respiratory syndrome coronavirus 2, UniProt P0DTD1)
Spike glycoprotein: Spike glycoprotein (Severe acute respiratory syndrome coronavirus 2, UniProt P0DTC2)
Compound	target or system	assay	system	setting	scale	endpoint	value
Cc1cn([C@H]2C[C@H](N=[N+]=[N-])[C@@H](CO)O2)c(=O)[nH]c1=O	HIV-1	viral replication	human PBMC, subtype D 92UG024, CXCR4-tropic clinical isolate			EC50	0.00648 ± 0.00639 µM
Nc1ncnc2c([C@@H]3N[C@H](CO)[C@@H](O)[C@H]3O)c[nH]c12	Zaire ebolavirus	antibody staining	human macrophages	100 µM		antigen-positive cells	2.31%
CCn1nc(C)c(C(=O)NCc2nc(-c3cccc(C)c3)no2)c1C	Lassa mammarenavirus	viral replication	Huh-7	10 µM, 72 h		remaining activity	54%
CN[C@@H](Cc1c[nH]c2ccccc12)C(=O)O	CAMK2A	enzyme activity, inhibitor		10 µM		inhibition	-19%
O=C1C[C@@H]2OCC=C3CN4CC[C@]56c7ccccc7N1[C@H]5[C@H]2[C@H]3C[C@H]46	Plasmodium berghei		Huh-7, liver stage	10 µM, 24 h	relative to: control	parasite load	83.6%
O=C(O)c1ccc(-c2cccc(/C=N/NC(=O)c3ccc(O)c(O)c3)c2)cc1	Gag-Pol polyprotein, reverse transcriptase A502G/D256G (gag-pol, Human immunodeficiency virus type 1 group M subtype B, UniProt P04585, A1089G/D843G)	RNase H activity, inhibitor	HIV-1			IC50	6.5 ± 2.1 µM
CC1(C)CC2(C)OC(=O)NC2(C)c2ccccc21 (centres unmarked)	rep nsp13 helicase	binding, affinity selection mass spectrometry			relative to: other proteins in batch	log fold enrichment	0.176
CN(C)c1ccc(N(Cc2cc(Cl)cs2)C(=O)Cc2cncc3ccccc23)cc1	Replicase polyprotein 1ab, main protease (rep, Severe acute respiratory syndrome coronavirus 2, UniProt P0DTD1)	binding, MST				Kd	0.24 µM
COc1ccc(-c2nnc(Nc3nc4c(OC)cccc4s3)o2)cc1	rep nsp13 helicase	helicase ATPase activity, inhibitor, Kinase-Glo luminescence				IC50	> 150 µM
O=C(/C=C/c1ccc(O)c(O)c1/C=C/c1ccc(O)c(O)c1)O[C@H](Cc1ccc(O)c(O)c1)C(=O)O	Spike glycoprotein	binding				Kd	27.1 µM
O=C(N1CCC2(CC1)C[C@H](CN1CCCCS1(=O)=O)CCO2)C1(c2ccccc2)CCCC1	Polyprotein P1234, nsP2 (Chikungunya virus, UniProt Q8JUX6)	ATPase activity, inhibitor		full-length nsP2		IC50	0.84 µM
N=C(N)Nc1ccc(C(=O)Oc2ccc3cc(C(=N)N)ccc3c2)cc1	Spike glycoprotein, RBD; with ACE2 (Severe acute respiratory syndrome coronavirus 2, UniProt P0DTC2)	binding, inhibitor				IC50	no inhibition
Oc1cc(O)c2c(c1)O[C@H](c1cc(O)c(O)c(O)c1)[C@H](O)C2	Spike glycoprotein	binding, biolayer interferometry				Kd	63.1 µM
CC1=C(/C=C/C(C)=C/C=C/C(C)=C/C(=O)Nc2ccc(O)cc2)C(C)(C)CCC1	Severe acute respiratory syndrome coronavirus 2	viral replication, inhibitor		5 µM		inhibition	~60%
Oc1c(Cl)cc(Cl)c2cccnc12	HEK-293T	pseudovirus infection, FDA-approved drug library screen	VSV pseudotyped with SARS-CoV-2 spike	10 µM, 16 h	relative to: vehicle-treated	GFP-positive cells	74.2%
Nc1ccn([C@H]2C[C@H](O)[C@@H](COP(=O)(O)OP(=O)(O)OP(=O)(O)O)O2)c(=O)n1	Gag-Pol polyprotein, reverse transcriptase (gag-pol, Human immunodeficiency virus type 1 group M subtype B, UniProt P04585, K653R)	nucleotide misinsertion, steady-state kinetics		K66R mutant RT, added: opposite template T		Km	213 ± 117 µM
NC(=O)c1cc(-c2cc(NCc3ccccn3)nc3[nH]ccc23)cs1	Lassa mammarenavirus	viral replication	Huh-7	10 µM, 72 h		remaining activity	53%
N#CCc1ccc(O)cc1	CAMK2A	enzyme activity, inhibitor		10 µM		inhibition	-42%
Cc1cn([C@H]2C[C@H](N=[N+]=[N-])[C@@H](COP(=O)(O)OP(=O)(O)OP(=O)(O)O)O2)c(=O)[nH]c1=O	Gag-Pol polyprotein, reverse transcriptase (gag-pol, Human immunodeficiency virus type 1 group M subtype B, UniProt P04585, K653N)	reverse transcriptase activity, inhibitor	HIV-1		relative to: K66N mutant over wild type	fold resistance	3 fold

A few entries again (series 3):
SMILES	inhibition
COC(=O)C(Cc1ccc(OCCn2c(=O)sc3cc(C(=O)c4ccccc4)ccc32)cc1)C(=O)OC	-1.95%
CNC(=O)c1cc(Oc2ccc(NC(=O)Nc3ccc(Cl)c(C(F)(F)F)c3)cc2)ccn1	2.63%
C=C1/C(=C\C=C2/CCC[C@]3(C)[C@@H]([C@H](C)CCCC(C)C)CC[C@@H]23)C[C@@H](O)C[C@@H]1O	-7.39%
CCOCC(O)COc1ccc(NC(=O)CC[S+](C)C)cc1 (centres unmarked)	-2.12%
NC[C@@](O)(c1ccc(Cl)cc1)c1ccc(-c2cn[nH]c2)cc1	0.22%
